Measured values collected from several papers.
Parts stem from different laboratories: compare values within a part only. Several values in a cell are separate wells, animals, samples, runs or records.
Sequence of UniProt Q13976 (whole entry, looked up): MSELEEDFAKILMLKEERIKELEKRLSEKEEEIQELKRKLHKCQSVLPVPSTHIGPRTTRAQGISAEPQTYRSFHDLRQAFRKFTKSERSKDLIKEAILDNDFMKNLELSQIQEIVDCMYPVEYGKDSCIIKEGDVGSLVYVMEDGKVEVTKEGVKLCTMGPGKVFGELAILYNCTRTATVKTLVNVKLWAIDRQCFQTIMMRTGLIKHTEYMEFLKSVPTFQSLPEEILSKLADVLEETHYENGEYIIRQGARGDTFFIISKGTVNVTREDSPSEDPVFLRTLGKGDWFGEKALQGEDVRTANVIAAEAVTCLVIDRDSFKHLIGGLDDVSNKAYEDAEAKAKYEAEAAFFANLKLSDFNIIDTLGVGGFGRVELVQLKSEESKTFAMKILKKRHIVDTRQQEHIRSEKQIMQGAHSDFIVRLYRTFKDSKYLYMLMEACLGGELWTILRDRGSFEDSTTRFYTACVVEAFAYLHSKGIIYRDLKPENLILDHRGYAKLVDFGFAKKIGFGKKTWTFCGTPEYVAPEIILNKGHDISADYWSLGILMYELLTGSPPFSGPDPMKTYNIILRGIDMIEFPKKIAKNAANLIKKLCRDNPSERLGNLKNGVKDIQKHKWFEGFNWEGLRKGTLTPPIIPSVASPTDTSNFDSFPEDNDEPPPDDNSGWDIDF
Sequence of UniProt P33981 (whole entry, looked up): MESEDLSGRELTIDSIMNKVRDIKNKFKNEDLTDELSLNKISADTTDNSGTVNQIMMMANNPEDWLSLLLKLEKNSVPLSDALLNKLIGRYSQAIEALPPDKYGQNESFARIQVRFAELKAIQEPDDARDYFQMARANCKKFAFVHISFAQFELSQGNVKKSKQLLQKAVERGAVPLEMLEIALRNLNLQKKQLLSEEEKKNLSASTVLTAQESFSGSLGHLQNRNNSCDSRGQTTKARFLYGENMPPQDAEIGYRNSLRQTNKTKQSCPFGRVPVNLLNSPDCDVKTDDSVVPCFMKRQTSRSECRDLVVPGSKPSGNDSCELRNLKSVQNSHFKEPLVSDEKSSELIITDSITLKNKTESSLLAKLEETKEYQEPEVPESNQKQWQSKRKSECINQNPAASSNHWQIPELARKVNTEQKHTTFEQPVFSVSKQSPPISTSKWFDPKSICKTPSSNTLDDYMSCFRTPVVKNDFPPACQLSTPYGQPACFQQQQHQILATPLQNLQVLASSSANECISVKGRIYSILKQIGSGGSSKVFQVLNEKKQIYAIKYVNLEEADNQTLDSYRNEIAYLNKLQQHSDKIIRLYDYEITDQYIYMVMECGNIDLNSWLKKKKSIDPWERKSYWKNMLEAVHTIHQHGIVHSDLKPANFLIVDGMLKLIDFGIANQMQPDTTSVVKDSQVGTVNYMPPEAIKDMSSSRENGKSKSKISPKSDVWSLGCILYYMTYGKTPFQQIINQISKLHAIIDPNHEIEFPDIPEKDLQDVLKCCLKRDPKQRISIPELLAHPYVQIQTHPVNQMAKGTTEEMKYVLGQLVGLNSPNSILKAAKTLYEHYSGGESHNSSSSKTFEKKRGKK

Block 1
Target: Bromodomain-containing protein 4, BD1 (BRD4, Homo sapiens, UniProt O60885)
Read-out: acetyl-histone H4 peptide binding
Method: AlphaScreen displacement
Concentration: 50 µM
Compound | inhibition
Nc1ncnc2c1c(I)cn2[C@@H]1O[C@H](CO)[C@@H](O)[C@H]1O | 14.7%
COc1ccccc1-c1cnc2[nH]c(=O)n(C3CCCC3)c2n1 | 12.2%
CNC(=O)c1c(F)cccc1Nc1nc(Nc2cc3c(cc2OC)CCN3C(=O)CN(C)C)nc2[nH]ccc12 | 38.1%
Cl.O=S(=O)(c1cccc2c(Cl)cccc12)N1CCCNCC1 | 5.1%
O=C1Nc2ccccc2C1=C1Nc2ccccc2C1=NO | 93.5%
c1ccc(-c2cnc(Nc3ccc(OCCN4CCCC4)cc3)s2)cc1 | 68.2%
CC(=O)Cc1cc(-c2cc(CC(C)=O)[nH]n2)n[nH]1 | 12.2%
COc1ccc(Nc2nc(N)nc3[nH]cnc23)cc1 | 22.7%
COc1ccc(CNC(=O)c2n[nH]c3ccccc23)cn1 | 5.9%
CC1CCc2nc(C(C#N)=Cc3ccncc3)sc2C1 (stereo not shown) | 9.1%
O=c1[nH]cnc2ccc(NC(=S)Nc3cccc4ccccc34)cc12 | 29.1%
O=C(Nc1cc(Cl)ccc1C(=O)O)c1ccc2c(c1)C(=O)N(Cc1cccnc1)C2=O | 23.5%
NC(=O)CSc1ccc2nnc(-c3cccc(F)c3)n2n1 | 12.2%
NC(=O)NC(=O)CSc1nc2ccccc2c(=O)n1-c1ccccc1F | 9.35%
CC=CCn1cnc2c1c(=O)n(C)c(=O)n2C | -8.35%

Block 2
SMILES: C[C@H](c1ccnc(Nc2nc3ccc(-c4cc(N(C)C)ncn4)cc3[nH]2)c1)N1CCN(C(=O)CC(F)(F)F)CC1
Method: competition with immobilised ligand
Concentration: 0.1 µM
target | assay | remaining binding
CSK (Homo sapiens, UniProt P41240) | cell-free assay | 100%
PIKFYVE (Homo sapiens, UniProt Q9Y2I7) | cell-free assay | 100%
Tyrosine-protein kinase ABL1, phosphorylated (ABL1, Homo sapiens, UniProt P00519) | cell-free assay | 85%
Tyrosine-protein kinase ABL1, phosphorylated (ABL1, Homo sapiens, UniProt P00519, Y253F) | cell-free assay | 91%
MAP3K12 (Homo sapiens, UniProt Q12852) | cell-free assay | 100%
RIOK1 (Homo sapiens, UniProt Q9BRS2) | cell-free assay | 100%
PRKG1 (Homo sapiens, UniProt Q13976) | cell-free assay | 100%
FGR (Homo sapiens, UniProt P09769) | cell-free assay | 85%
FGFR3 (Homo sapiens, UniProt P22607) | cell-free assay | 100%
ULK3 (Homo sapiens, UniProt Q6PHR2) | cell-free assay | 90%
PRKD2 (Homo sapiens, UniProt Q9BZL6) | cell-free assay | 100%
PKMYT1 (Homo sapiens, UniProt Q99640) | cell-free assay | 83%
MAST1 (Homo sapiens, UniProt Q9Y2H9) | cell-free assay | 100%
TTK (Homo sapiens, UniProt P33981) | cell-free assay | 82%
FLT3 (Homo sapiens, UniProt P36888, D835V/ITD) | cell-free assay | 64%
EGFR (Homo sapiens, UniProt P00533, T790M) | cell-free assay | 100%
FGFR1 (Homo sapiens, UniProt P11362) | cell-free assay | 100%
KIT (Homo sapiens, UniProt P10721, A829P) | cell-free assay | 83%
CDKL5 (Homo sapiens, UniProt O76039) | binding | 100%
CAMK2G (Homo sapiens, UniProt Q13555) | cell-free assay | 77%
ACVR2B (Homo sapiens, UniProt Q13705) | binding | 81%
STK39 (Homo sapiens, UniProt Q9UEW8) | cell-free assay | 100%
EGFR (Homo sapiens, UniProt P00533, G719C) | cell-free assay | 84%

Block 3
Target: DNA polymerase theta, helicase domain (POLQ, Homo sapiens, UniProt O75417)
Sequence of UniProt O75417 (whole entry, looked up): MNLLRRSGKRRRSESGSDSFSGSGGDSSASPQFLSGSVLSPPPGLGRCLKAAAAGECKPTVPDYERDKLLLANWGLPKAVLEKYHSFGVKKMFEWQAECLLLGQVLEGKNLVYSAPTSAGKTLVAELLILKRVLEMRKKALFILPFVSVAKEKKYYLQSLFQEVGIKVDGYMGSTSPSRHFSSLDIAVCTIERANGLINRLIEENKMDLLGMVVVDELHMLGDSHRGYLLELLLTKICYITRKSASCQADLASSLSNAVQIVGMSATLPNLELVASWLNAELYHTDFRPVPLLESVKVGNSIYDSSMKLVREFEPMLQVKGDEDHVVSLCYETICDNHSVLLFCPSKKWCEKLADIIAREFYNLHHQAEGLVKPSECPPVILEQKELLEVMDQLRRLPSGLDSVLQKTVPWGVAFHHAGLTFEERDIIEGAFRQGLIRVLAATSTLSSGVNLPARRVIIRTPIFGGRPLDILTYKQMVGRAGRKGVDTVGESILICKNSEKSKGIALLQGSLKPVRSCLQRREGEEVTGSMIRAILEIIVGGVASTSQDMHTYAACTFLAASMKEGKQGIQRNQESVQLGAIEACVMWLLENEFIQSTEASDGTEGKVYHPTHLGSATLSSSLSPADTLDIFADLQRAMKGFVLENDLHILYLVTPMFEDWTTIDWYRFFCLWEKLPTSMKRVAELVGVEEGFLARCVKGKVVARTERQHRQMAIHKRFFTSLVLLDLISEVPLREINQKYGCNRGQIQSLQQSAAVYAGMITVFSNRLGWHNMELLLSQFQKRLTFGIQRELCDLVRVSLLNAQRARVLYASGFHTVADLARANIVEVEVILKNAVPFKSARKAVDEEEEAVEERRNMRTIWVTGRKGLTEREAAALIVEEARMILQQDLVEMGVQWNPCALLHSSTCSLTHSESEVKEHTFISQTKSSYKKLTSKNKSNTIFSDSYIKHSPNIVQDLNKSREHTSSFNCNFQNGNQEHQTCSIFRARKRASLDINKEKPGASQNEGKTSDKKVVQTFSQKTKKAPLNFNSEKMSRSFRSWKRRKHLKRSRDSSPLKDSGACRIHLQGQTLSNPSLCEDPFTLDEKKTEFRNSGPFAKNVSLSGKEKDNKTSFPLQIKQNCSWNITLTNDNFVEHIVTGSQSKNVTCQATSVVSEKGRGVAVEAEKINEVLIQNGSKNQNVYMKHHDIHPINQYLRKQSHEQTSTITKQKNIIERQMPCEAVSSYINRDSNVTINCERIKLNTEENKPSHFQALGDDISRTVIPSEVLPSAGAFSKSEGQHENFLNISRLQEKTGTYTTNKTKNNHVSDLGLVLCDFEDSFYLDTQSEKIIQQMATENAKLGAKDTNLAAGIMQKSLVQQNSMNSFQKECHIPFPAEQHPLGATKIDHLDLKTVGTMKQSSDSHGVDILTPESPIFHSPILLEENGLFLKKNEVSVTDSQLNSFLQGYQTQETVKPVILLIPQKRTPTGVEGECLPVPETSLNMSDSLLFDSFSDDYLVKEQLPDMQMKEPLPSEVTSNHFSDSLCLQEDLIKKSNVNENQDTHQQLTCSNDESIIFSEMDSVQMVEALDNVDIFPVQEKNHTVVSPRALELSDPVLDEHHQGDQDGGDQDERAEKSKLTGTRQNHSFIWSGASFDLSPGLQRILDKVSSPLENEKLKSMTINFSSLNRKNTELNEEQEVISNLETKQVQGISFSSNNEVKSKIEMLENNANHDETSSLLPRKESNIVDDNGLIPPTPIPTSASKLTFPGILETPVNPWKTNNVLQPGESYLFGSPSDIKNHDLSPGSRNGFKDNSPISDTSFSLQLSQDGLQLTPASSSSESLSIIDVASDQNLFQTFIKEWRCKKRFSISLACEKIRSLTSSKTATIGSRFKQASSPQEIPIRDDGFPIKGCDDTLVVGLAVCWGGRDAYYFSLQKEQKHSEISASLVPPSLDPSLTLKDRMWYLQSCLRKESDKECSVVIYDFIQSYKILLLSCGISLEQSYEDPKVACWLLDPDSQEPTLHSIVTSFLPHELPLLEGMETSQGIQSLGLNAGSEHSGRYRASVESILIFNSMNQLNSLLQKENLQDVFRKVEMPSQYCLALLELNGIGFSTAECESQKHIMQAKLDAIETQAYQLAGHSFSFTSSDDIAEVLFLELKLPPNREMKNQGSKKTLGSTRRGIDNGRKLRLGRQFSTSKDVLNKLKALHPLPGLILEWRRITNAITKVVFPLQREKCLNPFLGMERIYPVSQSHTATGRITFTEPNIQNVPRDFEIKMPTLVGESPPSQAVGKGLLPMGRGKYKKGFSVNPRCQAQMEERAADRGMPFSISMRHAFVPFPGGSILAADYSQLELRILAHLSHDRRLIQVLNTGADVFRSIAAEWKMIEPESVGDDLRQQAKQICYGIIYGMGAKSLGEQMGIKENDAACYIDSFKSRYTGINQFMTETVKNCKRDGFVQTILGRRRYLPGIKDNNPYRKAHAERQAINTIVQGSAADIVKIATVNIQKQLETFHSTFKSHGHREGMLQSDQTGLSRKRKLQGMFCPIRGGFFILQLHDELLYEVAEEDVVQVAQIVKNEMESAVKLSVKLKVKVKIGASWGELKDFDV
Action: inhibitor
Concentration: concentration not given
Together with: without ssDNA
SMILES | remaining activity
COc1ccc2c(c1)c(CC(=O)O)c(C)n2Cc1ccc(Cl)cc1 | 63.8% and 64.2%
COc1ccc(C(=O)Nc2noc3ccccc23)cc1 | 65.8% and 61.8%
CCCCCCCC/C=C\CCCCCCCC(=O)O | 97.4% and 99.8%
Cc1c(Cl)cccc1NC(=O)CSc1ncc(S(=O)(=O)c2ccc(C(C)C)cc2)c(=O)[nH]1 | 94% and 88.5%
Cc1ccc(C(=O)Nc2ccc(S(=O)(=O)[O-])c3cc(S(=O)(=O)[O-])cc(S(=O)(=O)[O-])c23)cc1NC(=O)c1cccc(NC(=O)Nc2cccc(C(=O)Nc3cc(C(=O)Nc4ccc(S(=O)(=O)[O-])c5cc(S(=O)(=O)[O-])cc(S(=O)(=O)[O-])c45)ccc3C)c2)c1.[Na+].[Na+].[Na+].[Na+].[Na+].[Na+] | 14.7% and 14.3%
COC(=O)[C@]12CCC(C)(C)C[C@H]1[C@H]1C(=O)C=C3[C@@]4(C)C=C(C#N)C(=O)C(C)(C)[C@@H]4CC[C@@]3(C)[C@]1(C)CC2 | 90.3% and 88.1%
CCOc1cccc2c1N[C@@H](c1ccc(C(=O)O)cc1)[C@H]1CC=C[C@@H]21 | 62.4% and 66.8%
Cc1ccccc1C(=O)Nc1sc2c(c1C(=O)O)CCC(C(C)(C)C)C2 (stereo not shown) | 30.2% and 30.7%
Cc1ccc(C(=O)c2cc(O)c(O)c([N+](=O)[O-])c2)cc1 | 42.5% and 42.4%
O=C(O)C1=CC(=C(c2ccc(O)c(C(=O)O)c2)c2ccc(O)c(C(=O)O)c2)C=CC1=O | 8.58% and 9.2%
Cc1ccc(-c2n[nH]c3c2C(c2ccccc2Cl)N(c2ccc(C(=O)O)cc2)C3=O)cc1 (stereo not shown) | 87.5% and 81.7%
O=C(Nc1ccccc1C(=O)O)c1cccc(S(=O)(=O)N2CCCC2)c1 | 55.4% and 53.7%

Block 4
Target: RAF proto-oncogene serine/threonine-protein kinase (RAF1, Homo sapiens, UniProt P04049)
Sequence of UniProt P04049 (whole entry, looked up): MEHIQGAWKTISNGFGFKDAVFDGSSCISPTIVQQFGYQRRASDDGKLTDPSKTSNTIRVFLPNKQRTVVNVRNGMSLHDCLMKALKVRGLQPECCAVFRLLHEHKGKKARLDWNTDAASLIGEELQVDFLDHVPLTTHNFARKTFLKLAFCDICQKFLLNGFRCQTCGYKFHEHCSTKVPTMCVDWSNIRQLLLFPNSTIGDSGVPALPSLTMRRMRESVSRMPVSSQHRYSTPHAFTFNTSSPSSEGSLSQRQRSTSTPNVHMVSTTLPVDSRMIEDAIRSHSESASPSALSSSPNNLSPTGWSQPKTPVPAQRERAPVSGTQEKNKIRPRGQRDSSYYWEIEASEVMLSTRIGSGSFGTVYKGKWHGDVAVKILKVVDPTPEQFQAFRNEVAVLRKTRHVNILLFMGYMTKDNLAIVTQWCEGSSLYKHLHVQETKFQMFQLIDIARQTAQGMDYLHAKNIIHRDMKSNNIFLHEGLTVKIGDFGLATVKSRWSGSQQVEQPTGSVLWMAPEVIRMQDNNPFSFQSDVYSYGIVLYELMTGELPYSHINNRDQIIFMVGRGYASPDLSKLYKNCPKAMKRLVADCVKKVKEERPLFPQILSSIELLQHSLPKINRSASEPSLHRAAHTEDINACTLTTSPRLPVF
Read-out: enzyme activity
Action: inhibitor
Concentration: 0.5 µM
Reference: control
Compound | remaining activity [%]
COc1cccc(-c2cc(=O)c3ccccc3o2)c1N | 91.5
O=C1Nc2ccccc2/C1=C\c1c(Cl)[nH]c2ccccc12 | 89.9
CCCNC(=O)Nc1ccc(Oc2ncnc3cc(OC)c(OC)cc23)cc1Cl | 85.4
O=C(c1cc2cc(O)ccc2[nH]1)c1cc2cc(O)ccc2[nH]1 | 104
Cc1cc(Nc2cc(N3CCN(C)CC3)nc(Sc3ccc(NC(=O)C4CC4)cc3)n2)[nH]n1 | 117
Cc1ccc(S(=O)(=O)/C=C/C#N)cc1 | 104
O=Nc1c(-c2c(O)[nH]c3cc(Br)ccc23)[nH]c2ccccc12 | 103
CN(C)S(=O)(=O)c1ccc2c(c1)/C(=C/c1cc3c([nH]1)CCCC3)C(=O)N2 | 97.7
O=c1cc(N2CCOCC2)oc2c(-c3ccccc3)cccc12 | 82.3
N#Cc1cnc2cnc(NCc3cccnc3)cc2c1Nc1ccc(F)c(Cl)c1 | 90.9
c1ccc(-c2n[nH]c3c2oc2ccccc23)cc1 | 94.9
CN1CCN(c2ccc3nc(-c4c(N)c5c(F)cccc5[nH]c4=O)[nH]c3c2)CC1 | 115
COc1ccc2c(c1)c(C1=C(c3c[nH]c4ccccc34)C(=O)NC1=O)cn2CCCN(C)C | 99.3
O=C1Nc2ccc(Br)cc2/C1=C/c1cc2c([nH]1)CCCC2 | 88.2
O=C1NC(=O)c2c1c1c3ccccc3[nH]c1n1cncc21 | 108
Oc1cccc(-c2nc(N3CCOCC3)c3oc4ncccc4c3n2)c1 | 79.1
O=C1NC(=O)c2c1c1c3ccccc3[nH]c1c1[nH]c3cc(Br)ccc3c21 | 97.8
O=C1Cc2c([nH]c3ccc(Br)cc23)-c2ccccc2N1 | 91.5
c1ccc2c(-c3ccncc3)c[nH]c2c1 | 93.2
CCCCc1c(-c2ccc(OC)cc2)[nH]c2nccnc12 | 99.9
